Results gathered from unrelated publications.
Compare with care: the assays were run in different laboratories. Several values in a cell are separate wells, animals, samples, runs or records. Numbers after ± are the reported error.
UniProt Q13523, sequence (whole entry, looked up): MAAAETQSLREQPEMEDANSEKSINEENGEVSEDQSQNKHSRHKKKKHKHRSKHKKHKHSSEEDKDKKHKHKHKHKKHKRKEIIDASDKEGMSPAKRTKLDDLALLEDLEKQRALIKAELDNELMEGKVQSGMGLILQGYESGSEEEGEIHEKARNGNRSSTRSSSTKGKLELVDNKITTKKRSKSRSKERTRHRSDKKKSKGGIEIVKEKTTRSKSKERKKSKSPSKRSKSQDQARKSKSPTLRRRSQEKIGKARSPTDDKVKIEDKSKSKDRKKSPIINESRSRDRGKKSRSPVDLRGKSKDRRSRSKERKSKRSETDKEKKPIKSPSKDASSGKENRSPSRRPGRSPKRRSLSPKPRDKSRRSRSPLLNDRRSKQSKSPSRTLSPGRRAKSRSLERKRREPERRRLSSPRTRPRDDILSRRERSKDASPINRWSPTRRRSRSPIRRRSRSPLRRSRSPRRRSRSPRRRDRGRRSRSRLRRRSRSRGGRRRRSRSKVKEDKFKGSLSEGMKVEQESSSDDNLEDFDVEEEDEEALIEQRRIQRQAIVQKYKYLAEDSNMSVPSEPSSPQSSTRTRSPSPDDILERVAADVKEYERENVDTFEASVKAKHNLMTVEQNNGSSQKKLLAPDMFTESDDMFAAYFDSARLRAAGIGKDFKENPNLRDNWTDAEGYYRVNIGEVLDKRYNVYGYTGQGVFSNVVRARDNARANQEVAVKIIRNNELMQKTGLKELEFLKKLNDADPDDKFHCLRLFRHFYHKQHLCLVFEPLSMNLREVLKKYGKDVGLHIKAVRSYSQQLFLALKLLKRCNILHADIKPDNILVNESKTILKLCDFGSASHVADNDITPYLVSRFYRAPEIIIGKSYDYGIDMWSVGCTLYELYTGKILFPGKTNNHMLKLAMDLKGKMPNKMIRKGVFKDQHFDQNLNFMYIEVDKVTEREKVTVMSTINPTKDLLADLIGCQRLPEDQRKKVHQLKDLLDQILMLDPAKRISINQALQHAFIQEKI
UniProt Q06418, sequence (whole entry, looked up): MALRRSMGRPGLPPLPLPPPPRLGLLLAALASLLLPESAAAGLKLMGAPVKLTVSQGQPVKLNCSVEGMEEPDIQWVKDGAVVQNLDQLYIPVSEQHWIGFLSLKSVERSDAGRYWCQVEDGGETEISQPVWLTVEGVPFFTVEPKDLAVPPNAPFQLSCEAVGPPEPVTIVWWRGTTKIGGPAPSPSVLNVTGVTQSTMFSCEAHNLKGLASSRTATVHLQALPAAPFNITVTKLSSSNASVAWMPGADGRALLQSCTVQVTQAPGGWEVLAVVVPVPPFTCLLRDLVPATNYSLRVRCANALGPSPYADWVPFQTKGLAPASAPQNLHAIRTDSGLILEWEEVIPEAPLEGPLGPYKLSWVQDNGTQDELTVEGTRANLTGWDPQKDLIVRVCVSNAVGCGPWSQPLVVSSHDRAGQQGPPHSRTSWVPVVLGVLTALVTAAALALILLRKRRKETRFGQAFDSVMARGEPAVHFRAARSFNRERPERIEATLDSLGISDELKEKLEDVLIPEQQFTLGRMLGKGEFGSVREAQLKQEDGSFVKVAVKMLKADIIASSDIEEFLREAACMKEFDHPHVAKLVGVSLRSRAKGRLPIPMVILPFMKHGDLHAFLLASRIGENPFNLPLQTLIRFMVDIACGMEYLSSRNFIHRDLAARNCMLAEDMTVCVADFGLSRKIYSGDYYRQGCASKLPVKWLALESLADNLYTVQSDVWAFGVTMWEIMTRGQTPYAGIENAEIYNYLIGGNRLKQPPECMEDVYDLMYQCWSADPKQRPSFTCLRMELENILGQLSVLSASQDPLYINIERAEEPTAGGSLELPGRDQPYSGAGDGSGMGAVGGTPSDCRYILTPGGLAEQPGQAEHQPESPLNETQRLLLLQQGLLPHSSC

| SMILES | target or system | test | system | setting | scale | measurement | result |
| --- | --- | --- | --- | --- | --- | --- | --- |
| C#Cc1c(F)ccc2cc(O)cc(-c3ncc4c(N5CC6CCC(C5)N6C(=O)OC(C)OC(=O)C(C)(C)C)nc(OC[C@@]56CCCN5C[C@H](F)C6)nc4c3F)c12 (stereo partly shown) | – | item: prodrug | mouse whole blood | 1 µM | – | t1/2 | 14.4 min |
| CCn1ccc(-c2cc(-c3cnn(C)c3)cc([C@@H](C)NC(=O)c3cc(OCCN(C)C)ccc3C)c2)n1 | – | – | mouse C57BL/6J, male, plasma | oral, 50 mg/kg | – | AUC extrapolated percentage | 0.0336% |
| CC(C)C[C@@H](NC(=O)[C@@H](CCCNC(=N)N)NC(=O)[C@@H](Cc1c[nH]cn1)NC(=O)[C@@H](Cc1c[nH]c2ccccc12)NC(=O)[C@@H](Cc1c[nH]cn1)NC(=O)[C@@H](Cc1ccccc1)NC(=O)[C@H](NC(=O)[C@@H](Cc1ccc(O)cc1)NC(=O)CNC(=O)CNC(=O)CCOCCOCCOCCNC(=O)CN1CCN(CC(=O)O)CCN(CC(=O)O)CC1)[C@H](C)O)C(=O)N[C@H](CC(N)=O)C(=O)N1CCC[C@@H]1C(=O)O [gallium-68 labelled] | – | OLINDA/EXM | adult female human, heart wall | extrapolated from C57BL/6 mice | – | organ absorbed dose | 0.0102 ± 0.00246 mSv/MBq |
| C(#Cc1cncc(OC[C@@H]2CCN2)c1)c1ccccc1 | – | – | male Sprague-Dawley rat, plasma | oral, 75 mg/kg, 12 h | – | concentration | 170 ng/mL |
| CC[C@H](C)[C@H](NC(=O)[C@H](CCCCN)NC(=O)CNC(=O)[C@H](CC(C)C)NC(=O)[C@H](Cc1ccccc1)NC(=O)[C@H](CCCCN)NC(=O)[C@H](CO)NC(=O)[C@H](Cc1ccccc1)NC(=O)[C@H](Cc1c[nH]c2ccccc12)NC(=O)[C@H](CCC(N)=O)NC(=O)[C@@H](NC(=O)[C@H](Cc1ccccc1)NC(=O)CCCCCNC(=O)CN1CCN(CC(=O)O)CCN(CC(=O)O)CCN(CC(=O)O)CC1)C(C)C)C(=O)N[C@@H](CCC(=O)O)C(=O)N1CCC[C@H]1C(=O)N[C@@H](CC(=O)O)C(=O)N[C@H](C(=O)N[C@@H](CO)C(=O)N[C@@H](CCC(N)=O)C(=O)N[C@H](C(=O)N[C@@H](CCC(N)=O)C(=O)N[C@@H](CC(=O)O)C(=O)N1CCC[C@H]1C(=O)N[C@@H](CC(N)=O)C(=O)N[C@@H](CC(=O)O)C(=O)N[C@@H](CCC(N)=O)C(=O)N[C@@H](Cc1ccc(O)cc1)C(=O)N[C@@H](CCC(=O)O)C(=O)N1CCC[C@H]1C(=O)N[C@@H](Cc1ccccc1)C(=O)O)C(C)C)C(C)C [copper-64 labelled] | – | – | C57BL/6 mice, male, naive, skeletal muscle | 24 h | – | tissue uptake | 0.67 ± 0.06 %ID/g |
| C=CCN1CCC23c4c5ccc(OC(=O)c6ccc(NC(=O)OC(C)(C)C)cc6)c4OC2C(=O)CCC3(O)C1C5 (stereo not shown) | – | – | human plasma | 24 h | – | remaining compound | 42.8% and 41.1% and 40% |
| COc1cc2ncnc(Oc3ccc(Nc4nccc5[nH]cc(-c6ccc(F)cc6)c(=O)c45)cc3F)c2cc1OC | – | – | Sprague-Dawley rat | oral, 100 mg/kg once daily, 28 days | reference: vehicle | body weight gain | 70% |
| C/C(=N\OCCCN1CCCCC1)c1ccc(C(F)(F)F)cc1 | – | – | mouse, plasma | oral, 75 mg/kg twice daily, day 7 | – | AUC(0-t) | 3930 ± 254 ng·h/mL |
| O=C1NC2(CC2)COc2ncc(F)cc2[C@H]2COCCN2c2ccn3ncc1c3n2 | – | – | Sprague-Dawley rat, female, serum | oral, 10 mg/kg/day, 4 weeks daily, end of treatment | – | creatinine | 37.7 ± 5.3 µmol/L |
| C=C/C=C/C[C@@H](C)[C@@H](O)[C@H]1C(=O)N[C@@H](CC)C(=O)N(C)CC(=O)N(C)[C@@H](CC(C)C)C(=O)N[C@@H](C(C)C)C(=O)N(C)[C@@H](CC(C)C)C(=O)N[C@@H](C)C(=O)N[C@H](C)C(=O)N(C)[C@@H](CC(C)C)C(=O)N(C)[C@@H](CC(C)C)C(=O)N(C)[C@@H](C(C)C)C(=O)N1C | – | – | Wistar Kyoto rat, male, 24-hour urine | ip, 0.5 mg/kg/day, day 18 | – | urinary Mg2+ excretion | 288 ± 95 µmol/day |
| CC(C)[C@H]1NC(=O)C[C@H]2/C=C/CCSSC[C@@H](NC1=O)C(=O)N[C@H](Cc1cccc3ccccc13)C(=O)NCC(=O)O2 | Tyrosine-protein kinase receptor TYRO3 (TYRO3, Homo sapiens, UniProt Q06418) | enzyme activity, inhibitor | – | 10 µM | – | inhibition | -1.4% |
| NC(=O)[C@H](CCC(=O)O)NC(=O)[C@H](CCC(=O)O)NC(=O)[C@H](Cc1ccccc1)NC(=O)[C@H](Cc1ccccc1)NC(=O)OCC1c2ccccc2-c2ccccc21 | – | – | mouse, blood | intravenous, 10 mg/kg, single dose | – | MRT | 13.2 min |
| CC(C)[C@H](NC(=O)[C@H](Cc1c[nH]c2ccccc12)NC(=O)[C@H](CCCNC(=N)N)NC(=O)[C@H](CCCNC(=N)N)NC(=O)[C@@H](NC(=O)[C@@H](NC(=O)[C@H](CCCNC(=N)N)NC(=O)[C@@H](NC(=O)[C@@H](NC(=O)[C@H](CCCNC(=N)N)NC(=O)[C@H](CCCNC(=N)N)NC(=O)[C@@H](NC(=O)[C@H](Cc1c[nH]c2ccccc12)NC(=O)[C@H](CCCNC(=N)N)NC(=O)[C@H](CCCNC(=N)N)NC(=O)[C@@H](NC(=O)[C@H](CCCNC(=N)N)NC(=O)[C@H](CCCNC(=N)N)NC(=O)[C@@H](NC(=O)[C@H](Cc1c[nH]c2ccccc12)NC(=O)[C@H](CCCNC(=N)N)NC(=O)[C@@H](N)CCCNC(=N)N)C(C)C)C(C)C)C(C)C)C(C)C)C(C)C)C(C)C)C(C)C)C(=O)N[C@@H](CCCNC(=N)N)C(=O)N[C@@H](CCCNC(=N)N)C(=O)O | – | – | CD-1 mice | – | reference: dose | dose in tissues and carcass | ~50% |
| CSCC[C@H](N)C(=O)N[C@@H](C)C(=O)N[C@@H](CCCNC(=N)N)C(=O)N[C@@H](CCCNC(=N)N)C(=O)N[C@@H](CC(=O)O)C(=O)N[C@@H](CCCCN)C(=O)N[C@H](C(=O)N[C@@H](CC(=O)O)C(=O)N[C@@H](Cc1ccccc1)C(=O)N[C@@H](C)C(=O)N[C@@H](CCCNC(=N)N)C(=O)N[C@@H](CCCNC(=N)N)C(=O)N[C@@H](CCCNC(=N)N)C(=O)N[C@@H](CCCNC(=N)N)C(=O)NCCCCCC(=O)NCCCCC(NC(=O)CCCCCNC(=O)[C@H](CCCNC(=N)N)NC(=O)[C@H](CCCNC(=N)N)NC(=O)[C@H](CCCNC(=N)N)NC(=O)[C@H](CCCNC(=N)N)NC(=O)[C@H](C)NC(=O)[C@H](Cc1ccccc1)NC(=O)[C@H](CC(=O)O)NC(=O)[C@@H](NC(=O)[C@H](CCCCN)NC(=O)[C@H](CC(=O)O)NC(=O)[C@H](CCCNC(=N)N)NC(=O)[C@H](CCCNC(=N)N)NC(=O)[C@H](C)NC(=O)[C@@H](N)CCSC)[C@@H](C)O)C(=O)NCCCCC(NC(=O)C(CCCCNC(=O)CCCCCNC(=O)[C@H](CCCNC(=N)N)NC(=O)[C@H](CCCNC(=N)N)NC(=O)[C@H](CCCNC(=N)N)NC(=O)[C@H](CCCNC(=N)N)NC(=O)[C@H](C)NC(=O)[C@H](Cc1ccccc1)NC(=O)[C@H](CC(=O)O)NC(=O)[C@@H](NC(=O)[C@H](CCCCN)NC(=O)[C@H](CC(=O)O)NC(=O)[C@H](CCCNC(=N)N)NC(=O)[C@H](CCCNC(=N)N)NC(=O)[C@H](C)NC(=O)[C@@H](N)CCSC)[C@@H](C)O)NC(=O)CCCCCNC(=O)[C@H](CCCNC(=N)N)NC(=O)[C@H](CCCNC(=N)N)NC(=O)[C@H](CCCNC(=N)N)NC(=O)[C@H](CCCNC(=N)N)NC(=O)[C@H](C)NC(=O)[C@H](Cc1ccccc1)NC(=O)[C@H](CC(=O)O)NC(=O)[C@@H](NC(=O)[C@H](CCCCN)NC(=O)[C@H](CC(=O)O)NC(=O)[C@H](CCCNC(=N)N)NC(=O)[C@H](CCCNC(=N)N)NC(=O)[C@H](C)NC(=O)[C@@H](N)CCSC)[C@@H](C)O)C(N)=O)[C@@H](C)O (stereo partly shown) | – | – | C57BL/6 mouse female, uterus | dose not given, 6 h | reference: total | tissue distribution | 1.27% and 1.59% and 1.13% |
| CCN1CC2(COC)C(O)CC(OC)C34C5CC6(O)C(OC)C(O)C(O)(C5C6OC(=O)c5ccccc5)C(C(OC)C23)C14 (stereo not shown) | – | – | Sprague-Dawley rat, plasma | oral, dose not given, with NADES in PCW extract | – | Tmax | 40 ± 8.64 min |
| C[C@@H]1COCCN1c1nc(NCc2cccnc2C(F)(F)F)c2cccnc2n1 | – | metabolic stability | rat, hepatocytes | – | – | hepatocyte CLint | 16 µL/min/10⁶ cells |
| COc1ccccc1-c1n[nH]c2nc(NC3CCN(C(=O)Cc4ccc(F)cc4F)CC3)ncc12 | – | bead binding, competition bead pull-down, item: LINJ.03.0380 | Leishmania donovani axenic amastigote extract | 10 µM | reference: vehicle | relative abundance | 0.93 |
| N=C(N)NCCC[C@H](NC(=O)[C@H](CCCNC(=N)N)NC(=O)[C@H](CCCNC(=N)N)NC(=O)[C@H](CCC(N)=O)NC(=O)[C@H](CCCNC(=N)N)NC(=O)[C@H](CCCNC(=N)N)NC(=O)[C@H](CCCCN)NC(=O)[C@H](CCCCN)NC(=O)[C@H](CCCNC(=N)N)NC(=O)CNC(=O)[C@H](Cc1ccc(O)cc1)NC(=O)[C@H](Cc1ccccc1)NC(=O)[C@H](Cc1ccccc1)NC(=O)[C@H](Cc1ccccc1)NC(=O)Cc1ccc2ccccc2c1)C(=O)O | – | – | C57BL/6 mice | intraperitoneal, 10 mg/kg, 0.5 h | direction not given | health score | 5 |
| CCCCCCCCCCCCCCCC(=O)N[C@@H](CCC(=O)NCCOCCOCCC(=O)NCCOCCOCCC(=O)NCCCC[C@H](NC(=O)[C@H](CC(=O)O)NC(=O)[C@H](CC(C)C)NC(=O)[C@H](Cc1ccc(O)cc1)NC(=O)[C@H](CCCCN)NC(=O)[C@H](CO)NC(=O)[C@H](Cc1ccc(O)cc1)NC(=O)[C@H](CC(=O)O)NC(=O)[C@H](CO)NC(=O)[C@@H](NC(=O)[C@H](Cc1ccccc1)NC(=O)[C@@H](NC(=O)CNC(=O)[C@H](CCC(N)=O)NC(=O)[C@@H](CO)NC(=O)[C@@H](N)Cc1c[nH]cn1)[C@@H](C)O)[C@@H](C)O)C(=O)N[C@@H](CCCNC(=N)N)C(=O)N[C@@H](CCCNC(=N)N)C(=O)N[C@@H](C)C(=O)N[C@@H](CCC(N)=O)C(=O)N[C@@H](CC(=O)O)C(=O)N[C@@H](Cc1ccccc1)C(=O)N[C@H](C(=O)N[C@@H](CCC(N)=O)C(=O)N[C@@H](Cc1c[nH]c2ccccc12)C(=O)N[C@@H](CC(C)C)C(=O)N[C@@H](CC(C)C)C(=O)N[C@@H](CC(N)=O)C(=O)N[C@H](C(=O)NCC(=O)NCC(=O)N1CCC[C@H]1C(=O)N[C@@H](CO)C(=O)N[C@@H](CO)C(=O)NCC(=O)N[C@@H](C)C(=O)N1CCC[C@H]1C(=O)N1CCC[C@H]1C(=O)N1CCC[C@H]1C(=O)N[C@@H](CO)C(N)=O)[C@@H](C)O)C(C)C)C(=O)O | – | item: CK | rhesus monkey, female | subcutaneous, 60 µg/kg once daily, 28 days | – | serum enzyme activity | 130 ± 32 U/L |
| CC(C)(C)C(=O)OCOP(=O)(OCOC(=O)C(C)(C)C)C1CCCN(O)C1=O (stereo not shown) | MCF7 | – | – | – | – | TGI | 3.86 µM |
| CN1Cc2cc(Cl)ccc2-n2c(nnc2C2CCN(c3cccc([18F])n3)CC2)C1 | – | PET two-tissue compartment model | rhesus monkey, amygdala | intravenous, dose not given, 60 min scan, baseline scan | – | total volume of distribution | 1.03 ± 0.34 mL/cm3 |
| CN(C)[C@H]1C[C@@]23CC[C@@]4(O2)C(=CC[C@]2(C)[C@@H](c5ccc6ccncc6c5)CC[C@H]24)C=C3[C@@H](O)[C@@H]1O | Serine/threonine-protein kinase PRP4 homolog (PRPF4B, Homo sapiens, UniProt Q13523) | ATP probe labelling, inhibitor, KiNativ profiling | – | 1 µM | – | inhibition | 4.9% |
